Published values of several laboratories.
Numbered parts are unrelated; each lists some results of a single study.

Series 1 — method: RNA Bind-n-Seq; form: RNA; sample: in vitro; tested at: not given; reference: input RNA pool; direction: higher = stronger binding
Target: RING finger protein unkempt homolog, zinc fingers 1-6, GST-SBP tag (UNK, Homo sapiens, UniProt Q9C0B0, residues 30-357)
Notes: RNA with constant flanks, human and mouse sites, ends assumed
Constant ends, left off below: GGGAGUUCUACAGUCCGACGAUC … CAACAGAGGAUUGAGCAUCA
Construct (chain): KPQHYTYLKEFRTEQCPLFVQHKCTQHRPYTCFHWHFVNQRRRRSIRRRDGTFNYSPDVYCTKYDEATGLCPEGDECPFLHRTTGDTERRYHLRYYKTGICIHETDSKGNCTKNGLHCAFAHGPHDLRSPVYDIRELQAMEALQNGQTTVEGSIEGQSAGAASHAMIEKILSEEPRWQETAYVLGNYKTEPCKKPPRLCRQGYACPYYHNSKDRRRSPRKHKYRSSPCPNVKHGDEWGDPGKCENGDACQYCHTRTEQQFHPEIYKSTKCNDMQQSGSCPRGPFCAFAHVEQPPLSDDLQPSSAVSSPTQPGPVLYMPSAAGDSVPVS
Strand | bound/input enrichment
CCUGGUGCAGGAUUGCUUCCAAUACCGACCCCAAAUCCUUUGACUACUCUUGGUGUUUCACUUAGCAGUUUGGGAGCUAUACCAGCAGCAGCACUAGACCCCAACAUUGCAACACUUGGA | 0.184 ratio
ACCACACCUCCAAAUCAAGGAAGGCCAGAUUCUCCUGUCUAUGCUAACCUUCAAGAACUGAAAAUAUCCCAGUCUGCUCUUCCCCCACUUCCUGGGAGCCCGGCAAUUCAGAUUAAUGGA | 0.269 ratio
CCCUCAAAUCUUAGAGCGACGUGUUUGCCAGCUGGAGACCACAAUGUGUUCUAUGUAAAUACGUUCCCACUUCAAGACCCGCCUGACGCACCUUUUCCCUCACUGGAUUCCCCAGGAAAG | 0.28 ratio
CAGAACUGUGGCCCGAGUUUCCAAUCUCUGAUUGUGAAGAAGGAGUUCAUUAAAGAUACUCUAGUUAAGCUGCUGAAUCCCAGAUACACCUUACCGCUGGAGACCCAGAACAGAAUCUUG | 0.115 ratio
AGGAGAAGUUGAGGGGAGCAUGCUUCCCUGCAGCUGACCGGGUCACACAAAGGCAUGCUGGAGUACCCAGCCUAUCAGGUGCCCCUCUUCCAAAGGCAGCGUGCCGAGCCAGCAAGAGGA | 0.0447 ratio

Series 2 — method: RNA Bind-n-Seq; form: RNA; sample: in vitro; tested at: 1 µM; notes: whole 134-nt RNA, ends assumed; added: 150 mM KCl; reference: input library; direction: higher = stronger binding
Target: Ras GTPase-activating protein-binding protein 1, RRM domain (G3BP1, Homo sapiens, UniProt Q13283)
Sequence of UniProt Q13283 (whole entry, looked up): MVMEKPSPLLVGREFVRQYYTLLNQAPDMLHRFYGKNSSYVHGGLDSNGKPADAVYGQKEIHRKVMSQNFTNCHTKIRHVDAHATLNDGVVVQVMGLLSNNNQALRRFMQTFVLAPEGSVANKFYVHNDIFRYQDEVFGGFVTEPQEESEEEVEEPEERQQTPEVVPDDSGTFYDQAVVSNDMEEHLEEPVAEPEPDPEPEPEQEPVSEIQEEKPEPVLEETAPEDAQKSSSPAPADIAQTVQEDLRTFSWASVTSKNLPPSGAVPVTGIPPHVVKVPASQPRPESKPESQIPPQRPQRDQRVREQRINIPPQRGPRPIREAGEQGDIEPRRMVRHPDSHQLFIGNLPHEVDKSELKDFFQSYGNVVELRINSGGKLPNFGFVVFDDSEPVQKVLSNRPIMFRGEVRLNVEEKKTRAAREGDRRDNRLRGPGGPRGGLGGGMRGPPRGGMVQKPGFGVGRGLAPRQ
Constant ends, left off below: GGGAGUUCUACAGUCCGACGAUC … UGGAAUUCUCGGGUGUCAAGG
Strand | log2 enrichment
CACAGACAACACGCACCCACACAGACACAGAGGGUAGGGGUUGGGAUGGGGACAGGGUGCACAGCAGGGCGGGGUAGGACCCCAGCCCCU | -0.12
CUGUGCUACACAUCGUAUGUACCGAAUCGGGUUUUUUUGGGGUUUUUUUGGUUUUUUUGGGGAAAGUAUUAUGUUACGCCGUUCGGAUCU | -0.258
CUGUGCUACACAUCGUAUGUACCGAAUCGGUUUUUUUGGGGUUUUUUUGGGUUUUUUUGGGAAAGUAUUAUGUUACGCCGUUCGGAUCUG | -0.249
GUCCUGUGCUACACAUCGUAUGUACCGAAUCGGUUUUUGGGGUUUUUGGGGUUUUUGGAAAGUAUUAUGUUACGCCGUUCGGAUCUGCAC | -0.244
UGGCUUUCACCCCCAACCAGUGACCAAAGACUUGACCACUCAAAGUCCAGCUCCCCAGAACACUGCUCGACAUGGACACCGGUGUGAUUG | 0.0883
GCCACCAUGCCCACCUAGUUUUUGCAUUUUUAGUGGAGGUGUGGUUUCACUGUGUUGGCCAGGCUGGUCUCUUAACUCCUGACCUCAGGU | -0.0507
UCAAGUCCUGUGCUACACAUCGUAUGUACCGAAUCGGGAAAGGAAAGGGAAAGGGAAAGUAUUAUGUUACGCCGUUCGGAUCUGCACUUC | -0.169

Series 3 — method: protein-binding microarray; form: double-stranded DNA, one strand shown; sample: in vitro; tested at: 2200 nM top; notes: 60-bp whole probe; added: salmon DNA 0.4 mg/ml; reference: random background probes; direction: higher = stronger binding; constant ends, left off below: GCCTAGCAC … GTCTTGATTCGCTTGACGCTGCTG
Target: Interferon regulatory factor 7, full length, phosphomimetic (IRF7, Homo sapiens, UniProt Q92985, residues 1-503, S471D/S472D/S475D/S476D/S477D/S483D/S484D/S487D)
Target sequence (chain): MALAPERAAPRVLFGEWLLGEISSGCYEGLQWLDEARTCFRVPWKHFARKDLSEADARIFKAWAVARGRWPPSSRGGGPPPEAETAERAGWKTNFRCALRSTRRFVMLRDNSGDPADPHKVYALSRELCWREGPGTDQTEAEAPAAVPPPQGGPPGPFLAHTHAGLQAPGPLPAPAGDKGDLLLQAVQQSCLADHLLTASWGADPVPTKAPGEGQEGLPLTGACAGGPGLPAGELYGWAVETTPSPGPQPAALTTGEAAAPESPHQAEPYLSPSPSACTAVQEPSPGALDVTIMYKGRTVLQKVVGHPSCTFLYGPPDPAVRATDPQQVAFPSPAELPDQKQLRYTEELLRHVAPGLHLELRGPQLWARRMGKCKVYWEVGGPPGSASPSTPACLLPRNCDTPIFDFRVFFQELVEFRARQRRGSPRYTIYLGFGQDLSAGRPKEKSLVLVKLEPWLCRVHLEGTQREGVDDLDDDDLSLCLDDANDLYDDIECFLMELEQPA
Strand | fitted relative affinity
CTATAAAGCATCAGGAAAGCGTGCTAG | -0.661 z-score
TACGGTATCGGTCTCGGGACGTGCTAG | 0.433 z-score
GACGGTATCGGTCTCTGGACGTGCTAG | 0.537 z-score
GACGGTCTCGTTCTCCTGACGTGCTAG | 1.41 z-score
TTAGATATCAGGTTCGATTAGTGCTAG | 0.589 z-score
TCATAATTCCTGCCTGAGACTGTGCTA | 1.03 z-score

Further values, each from its own experiment
Substance | target | test | system | conditions | scale | measurement | result
PhoQ, residues 284 288 289 292 302 303 TTCLQL | PhoP, residues 12 14 15 18 19 IFFTR (Escherichia coli, UniProt P23836) | Sort-seq, measured: YFP reporter | E. coli | PhoQ-PhoP variant library, added: 10 µM Mg2+ | reference: high Mg2+ state, higher = stronger signaling | fold induction | 2.63

For quick reference, copied from above (series 2):
Strand | log2 enrichment
UGGCUUUCACCCCCAACCAGUGACCAAAGACUUGACCACUCAAAGUCCAGCUCCCCAGAACACUGCUCGACAUGGACACCGGUGUGAUUG | 0.0883
GCCACCAUGCCCACCUAGUUUUUGCAUUUUUAGUGGAGGUGUGGUUUCACUGUGUUGGCCAGGCUGGUCUCUUAACUCCUGACCUCAGGU | -0.0507
UCAAGUCCUGUGCUACACAUCGUAUGUACCGAAUCGGGAAAGGAAAGGGAAAGGGAAAGUAUUAUGUUACGCCGUUCGGAUCUGCACUUC | -0.169
